{"data": "Published values of several laboratories", "note": "A part holds a random share of what one study measured."}
{"data": "Set 1", "target": "Centromere-binding protein 1, full length, His-tagged (CBF1, Saccharomyces cerevisiae, UniProt P17106, residues 1-351)", "method": "competition protein-binding microarray", "form": "double-stranded DNA, one strand shown", "matrix": "in vitro", "concentration": "2 µM", "setting": "whole 60-bp probe, lowest competitor level", "added": "Pho4 competitor, 0.05 µM", "direction": "higher = stronger binding", "sequence of UniProt P17106 (whole entry, looked up)": "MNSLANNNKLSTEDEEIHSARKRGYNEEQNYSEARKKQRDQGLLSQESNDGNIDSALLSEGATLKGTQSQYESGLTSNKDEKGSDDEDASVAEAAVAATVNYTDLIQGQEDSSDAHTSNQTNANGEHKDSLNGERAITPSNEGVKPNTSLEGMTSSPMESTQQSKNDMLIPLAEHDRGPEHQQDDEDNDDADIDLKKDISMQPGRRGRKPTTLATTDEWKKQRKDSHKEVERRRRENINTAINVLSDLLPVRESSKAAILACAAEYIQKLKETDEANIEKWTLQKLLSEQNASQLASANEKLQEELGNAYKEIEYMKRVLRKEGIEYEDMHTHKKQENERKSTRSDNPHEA"}
{"Sequence": "CATACCCAACCTTGTCACTTAACTTAAGATATTTGTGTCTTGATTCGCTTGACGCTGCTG", "fluorescence intensity": "85.7 a.u."}
{"Sequence": "AGATAGAAGATCAAATCCGTGCCAGAACCGCCCTGCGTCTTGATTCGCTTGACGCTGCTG", "fluorescence intensity": "66.5 a.u."}
{"Sequence": "GGTCTTCTTGTTTTTCACCTGCTCGACAGCTCTTTGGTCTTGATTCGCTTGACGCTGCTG", "fluorescence intensity": "71.9 a.u."}
{"Sequence": "TTAGAGAATGAAAAGCACGTGGGTACTTCGATTTTGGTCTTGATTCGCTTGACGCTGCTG", "fluorescence intensity": "1440 a.u."}
{"Sequence": "CATACCCAACCTTGTCACACGACTTAAGATATTTGTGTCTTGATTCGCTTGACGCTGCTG", "fluorescence intensity": "141 a.u."}
{"Sequence": "AGAACACCTTAGAACCACATGATGCGTACCTACTACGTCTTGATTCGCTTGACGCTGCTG", "fluorescence intensity": "236 a.u."}
{"Sequence": "TTGACGAAACTATGCTGTGTGTGGCCAGGCGAACAAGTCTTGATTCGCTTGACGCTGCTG", "fluorescence intensity": "56.7 a.u."}
{"Sequence": "CTTCTGTAAATTTGTTAAGTGGGTGGACGCGCCCCGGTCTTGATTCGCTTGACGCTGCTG", "fluorescence intensity": "84.2 a.u."}
{"Sequence": "CATACCCAACCTTGTTTCGTGGGTGAAGATATTTGTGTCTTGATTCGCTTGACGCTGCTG", "fluorescence intensity": "67.4 a.u."}
{"data": "Set 2", "target": "Probable WRKY transcription factor 50, DNA-binding domain (WRKY50, Arabidopsis thaliana, UniProt Q8VWQ5, residues 99-173)", "method": "DNA-protein interaction ELISA", "form": "double-stranded DNA, one strand shown", "matrix": "in vitro, bacterial lysate", "concentration": "not given", "setting": "whole dsDNA probe, crude lysate protein", "relative to": "highest signal in screen", "direction": "higher = stronger binding", "Residues (chain)": "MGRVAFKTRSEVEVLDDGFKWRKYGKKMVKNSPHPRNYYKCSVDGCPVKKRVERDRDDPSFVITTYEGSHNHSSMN"}
{"Sequence": "AAAAAACGCCTTATGCCTCCCGCTCGAAAA", "relative absorbance": "11.8 % of maximum"}
{"Sequence": "AAAAAAATGATTTGCAGATCTCCGAGAAAA", "relative absorbance": "32.7 % of maximum"}
{"Sequence": "AAAAAAAAGTGCCAACGTTCAAGAAAAA", "relative absorbance": "17.8 % of maximum"}
{"Sequence": "AAAAAACACTTAACTGAGTGGGATTGAAAA", "relative absorbance": "19.7 % of maximum"}
{"data": "Set 3", "target": "Interferon regulatory factor 5, full length, phosphomimetic (IRF5, Homo sapiens, UniProt Q13568-2, residues 1-514, K96S/S451D/S453D/S456D/S462D)", "method": "protein-binding microarray", "form": "double-stranded DNA, one strand shown", "matrix": "in vitro", "concentration": "250 nM", "setting": "60-bp whole probe", "added": "salmon DNA 0.4 mg/ml", "relative to": "random background probes", "direction": "higher = stronger binding", "all sequences stand within": "GCCTAGCAC … GTCTTGATTCGCTTGACGCTGCTG"}
{"Sequence": "GACGATATCAGCATCGAGACGTGCTAG", "log fluorescence [z-score]": 0.826}
{"Sequence": "TCAACTCAGCACTTTGGCACTGTGCTA", "log fluorescence [z-score]": -0.185}
{"Sequence": "GACGGTATCGACACTGGCGACGTGCTA", "log fluorescence [z-score]": 1.68}
{"Sequence": "GGCTTTTTAATGAATGAAGAGGTGCTA", "log fluorescence [z-score]": -0.178}
{"Sequence": "GGCGGTATCGGACTGGGGACGTGCTAG", "log fluorescence [z-score]": 0.752}
{"Sequence": "GTCATTTTCTCTTATTCTAAGTGCTAG", "log fluorescence [z-score]": 2.6}
{"Sequence": "TCAAAAATCAAGTCTGGGACTGTGCTA", "log fluorescence [z-score]": -0.574}
{"data": "Mixed results"}
{"Substance": "PhoQ, residues 284 288 289 292 302 303 TLSLKA", "target": "PhoP, residues 12 14 15 18 19 NQCAL (Escherichia coli, UniProt P23836)", "assay": "Sort-seq, refers to: YFP reporter", "system": "E. coli", "setting": "PhoQ-PhoP variant library, added: 10 µM Mg2+", "how to read": "relative to: high Mg2+ state, higher = stronger signaling", "endpoint": "fold induction", "result": 0.831}
{"note": "A few entries again (set 3):"}
{"Sequence": "GGCTTTTTAATGAATGAAGAGGTGCTA", "log fluorescence [z-score]": -0.178}
{"Sequence": "GGCGGTATCGGACTGGGGACGTGCTAG", "log fluorescence [z-score]": 0.752}
